Assay results of several laboratories.
Parts stem from different laboratories: compare values within a part only. Changes are numbered by the printed parent chain.

Study 1
Target: Protein max, full length (MAX, Homo sapiens, UniProt P61244-2, residues 1-151)
Technique: protein-binding microarray
Form: double-stranded DNA, one strand shown
Sample: in vitro
Concentration: not given
Notes: k-mer, scored over probes, only values ≥0.25
Direction: higher = stronger binding
`CCCGTGAC` has an E-score of 0.325.
`CACGTGCA` has an E-score of 0.495.
`AGTCATGC` gave an E-score of 0.406.
With `TCGTGGAA` the E-score was 0.304.
The E-score of `CGAATCAC` is reported as 0.281.
The E-score of `ACGTGGGG` is reported as 0.407.
The E-score of `ACGCCACG` is reported as 0.408.
For `CACGATGA`, the E-score was 0.326.
The E-score of `ATGTGTAA` is reported as 0.286.
With `ATAACACG` the E-score was 0.379.
For `ATGCGGCC`, the E-score was 0.329.
The E-score of `GTGAACAC` is reported as 0.254.
`AATCACGA` has an E-score of 0.295.
`AACGTGCC` has an E-score of 0.383.
The E-score of `CCCACGCC` is reported as 0.38.
`CGTGAATA` gave an E-score of 0.313.
`CATGCATG` gave an E-score of 0.409.
For `GCACGCGA`, the E-score was 0.414.
The E-score of `AATGCATG` is reported as 0.346.
`CGTGATAA` gave an E-score of 0.355.
The E-score of `GCATGAAC` is reported as 0.259.
`CAGGTGGC` gave an E-score of 0.394.
With `AATGTGGT` the E-score was 0.264.
`AACACGTT` has an E-score of 0.437.
With `CTCCATGC` the E-score was 0.371.

Study 2
Target: Sal-like protein 4, full length isoform B (SALL4, Homo sapiens, UniProt Q9UJQ4-2, residues 1-616)
Technique: universal PBM
Form: double-stranded DNA, one strand shown
Sample: in vitro
Concentration: not given
Notes: 8-mer, flanks averaged, mean of replicates
Direction: higher = stronger binding
Residues (chain): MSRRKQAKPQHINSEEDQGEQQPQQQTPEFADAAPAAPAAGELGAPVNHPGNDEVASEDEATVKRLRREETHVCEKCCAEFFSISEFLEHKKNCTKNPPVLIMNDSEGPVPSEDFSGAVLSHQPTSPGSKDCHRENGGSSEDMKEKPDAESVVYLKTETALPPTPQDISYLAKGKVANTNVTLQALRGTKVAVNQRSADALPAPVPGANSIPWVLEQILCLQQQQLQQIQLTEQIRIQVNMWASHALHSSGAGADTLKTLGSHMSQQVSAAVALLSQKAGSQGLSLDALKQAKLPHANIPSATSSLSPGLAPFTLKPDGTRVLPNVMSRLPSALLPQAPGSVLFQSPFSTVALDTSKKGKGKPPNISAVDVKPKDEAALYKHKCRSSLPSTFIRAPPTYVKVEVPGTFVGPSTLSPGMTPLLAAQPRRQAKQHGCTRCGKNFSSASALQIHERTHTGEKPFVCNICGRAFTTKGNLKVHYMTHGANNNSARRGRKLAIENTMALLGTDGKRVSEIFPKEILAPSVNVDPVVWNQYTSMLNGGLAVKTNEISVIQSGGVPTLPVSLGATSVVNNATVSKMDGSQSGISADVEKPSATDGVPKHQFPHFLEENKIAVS
The E-score of `GTGTTCAA` is reported as 0.0487.
With `AGAGTATG` the E-score was 0.0382.
For `CACCACCA`, the E-score was -0.225.
`TAGTTAAA` gave an E-score of 0.243.
`CAAAGTGC` gave an E-score of -0.0925.
The E-score of `CCACCCCG` is reported as -0.0592.
`AAACTTAC` has an E-score of 0.204.
The E-score of `CGAACTAG` is reported as -0.0711.
`CAAATTTG` has an E-score of 0.117.
With `TAACCAAA` the E-score was 0.165.
For `AAGGGTAT`, the E-score was 0.21.
With `GCCGAGTA` the E-score was -0.278.
`ACATACCA` gave an E-score of 0.0276.
`CCGAGCTC` gave an E-score of -0.244.
With `CCTAGCAG` the E-score was -0.16.
The E-score of `ACACTAGT` is reported as 0.107.
For `CCACCCCA`, the E-score was -0.139.
`CCTCCCAG` gave an E-score of -0.351.
With `CGAGTGTA` the E-score was 0.0343.
`AACCGTAC` has an E-score of 0.0247.
With `ACGGAGTC` the E-score was -0.114.
With `TACCGTAA` the E-score was 0.126.
`CAATTACC` gave an E-score of 0.134.
The E-score of `AGACTATG` is reported as 0.0174.
`AACACCGC` has an E-score of -0.185.

Study 3
Target: CCNE2, cyclin fold, Cln2 fusion (human)
Technique: yeast growth competition, sequencing
Sample: yeast
Notes: weak parent motif
Relative to: not given
Direction: higher = stronger binding
Starting sequence: RB1 docking peptide (human); PKPLKKLRFDIEG
For `PKPLKKLRSDIEG [F9S]`, “normalised enrichment score” read 0.282.
For `PKPYKKLRFDIEG [L4Y]`, “normalised enrichment score” read 0.934.
For `PKPLKKHRFDIEG [L7H]`, “normalised enrichment score” read 0.636.
For `PKALKKLRFDIEG [P3A]`, “normalised enrichment score” read 0.826.
For `PKPLKKLRFDIGG [E12G]`, “normalised enrichment score” read 0.81.
Under “normalised enrichment score”, `PKPLKKLCFDIEG [R8C]` is recorded as 0.134.
For `PKPLKKLRFVIEG [D10V]`, “normalised enrichment score” read 0.0077.
Under “normalised enrichment score”, `PKPLDKLRFDIEG [K5D]` is recorded as 0.0759.
For `PKPLKKMRFDIEG [L7M]`, “normalised enrichment score” read 0.94.
`PKPLKCLRFDIEG [K6C]` — result for “normalised enrichment score”: 1.41.
Under “normalised enrichment score”, `PKPLSKLRFDIEG [K5S]` is recorded as 1.25.
For `PKPLKKLRFDAEG [I11A]`, “normalised enrichment score” read 0.279.
`PKPLKKLRFQIEG [D10Q]` — result for “normalised enrichment score”: -0.174.
`PKPLKNLRFDIEG [K6N]`: “normalised enrichment score” 0.129.
`IKPLKKLRFDIEG [P1I]` — result for “normalised enrichment score”: 0.171.
`PKPLKKLRFDDEG [I11D]`: “normalised enrichment score” 0.0649.
`PKPSKKLRFDIEG [L4S]`: “normalised enrichment score” 1.18.
For `PKPLKKYRFDIEG [L7Y]`, “normalised enrichment score” read -0.0524.
For `PGPLKKLRFDIEG [K2G]`, “normalised enrichment score” read 0.117.

Mixed results
`PhoQ, residues 284 288 289 292 302 303 TSTLRA` has a fold induction of 3.45 (PhoP, residues 12 14 15 18 19 STWGI (Escherichia coli, UniProt P23836); Sort-seq, measured: YFP reporter; E. coli; PhoQ-PhoP variant library, with: 10 µM Mg2+; relative to: high Mg2+ state, higher = stronger signaling).
